Assay results collected from several papers.
Protocols differ between the studies behind these lines. Values joined by “and” are separate records of one study, mostly repeats; a detail may differ.

`NCCC(=O)N1Cc2ccccc2-c2c(nnn2-c2nc3c(N)ncnc3n2C2OC(CO)C(O)C2O)-c2ccccc21` (mixture of isomers) has an emission maximum of 452 nm (50 mM phosphate buffer; pH 7.0).
For `COC(=O)c1ccccc1-c1c2ccc(=O)cc-2oc2c1ccc1cccc(N)c12`, the emission maximum was 530 nm and 750 nm (NaOH 12.5 mM; pH 12.1, 10% DMSO).
`CCOC(=O)c1[nH]c(C)c(/C=C/C2=[N+]3C(=C(c4cc(OC)cc(OC)c4)c4c(C)c(I)c(/C=C/c5c(C)[nH]c(C(=O)OCC)c5C)n4[B-]3(F)F)C(C)=C2I)c1C` gave an emission maximum of 731 nm (DMSO).
With `Cc1ccc(-c2ccc(-c3cc4sccc4o3)cn2)nc1` the emission maximum was 495 nm (aqueous HEPES buffer; pH 7.4, zinc(II) complex).
`CCCCCCCC(=O)N[C@@H](CCCCNS(=O)(=O)c1cccc2c(N(C)C)cccc12)C(=O)N[C@H](C(=O)N[C@@H](CCN)C(=O)N[C@H]1CCNC(=O)[C@H]([C@@H](C)O)NC(=O)[C@H](CCN)NC(=O)[C@H](CCN)NC(=O)[C@H](CC(C)C)NC(=O)[C@@H](Cc2ccccc2)NC(=O)[C@H](CCN)NC1=O)[C@@H](C)O` gave an emission maximum of about 485 nm (fluorescence; pH 7.0, added: LPS 3 mg/L).
For `CCOC(=O)c1[nH]c(C)c(/C=C/c2c(I)c(C)c3n2[B-](F)(F)[N+]2=C(C)C(I)=C(C)C2=C3c2cc(OC)cc(OC)c2)c1C`, the emission maximum was 639 nm (DMSO).
`CC1=CC(C)=[N+]2C1=C(c1ccc(C[P+](c3ccccc3)(c3ccccc3)c3ccccc3)cc1)c1c(C)cc(C)n1[B-]2(F)F` has an emission maximum of 511 nm (PBS; 10 µM, pH 7.4, 298 K, added: excitation 497 nm).
With `COc1cc(OC)cc(C2=C3C(C)=C(I)C(C)=[N+]3[B-](F)(F)n3c(/C=C/c4c[nH]c5ccccc45)c(I)c(C)c32)c1` the emission maximum was 676 nm (DMSO).
With `COc1ccc2c(c1)c(CC(=O)NCCCCNC(=O)c1ccc(C3=c4cc5c6c(c4Oc4c3cc3c7c4C(C)(C)CCN7CCC3(C)C)C(C)(C)CC[N+]=6CCC5(C)C)c(C(=O)[O-])c1)c(C)n2C(=O)c1ccc(Cl)cc1` the emission maximum was 595 nm (fluorescence spectroscopy; pH 7).
The emission maximum of `CCCCN1C(=O)c2cccc3c(NCCCCCN4CCOCC4)ccc(c23)C1=O` is reported as 553 nm (aqueous medium; pH 6).
The emission maximum of `Nc1nc(-n2nnc3c2CCC2C(CO)C2CC3)nc2c1ncn2C1OC(CO)C(O)C1O` (mixture of isomers) is reported as 405 nm (50 mM phosphate buffer; pH 7.0).
For `CC1(C)C(=CC=C(C=CC2=[N+](CCC[N+](C)(C)C)c3ccc(S(=O)(=O)[O-])cc3C2(C)C)Oc2ccc(CCC(=O)[O-])cc2)N(CCC[N+](C)(C)C)c2ccc(S(=O)(=O)[O-])cc21`, the emission maximum was 672 nm (100% serum; pH 7.4).
`COc1cc(OC)cc(C2=C3C(C)=C(I)C(/C=C/c4c[nH]c5ccc([N+](=O)[O-])cc45)=[N+]3[B-](F)(F)n3c(/C=C/c4c[nH]c5ccc([N+](=O)[O-])cc45)c(I)c(C)c32)c1` has an emission maximum of 721 nm (dichloromethane).
`Nc1ncnc2c1nc(-n1nnc3c1CCC1C(CO)C1CC3)n2C1CC(O)C(CO)O1` (mixture of isomers) has an emission maximum of 392 nm (DMSO).
For `CC1=CC(C)=[N+]2C1=C(CCCC(=O)NCC1CCC(C(=O)NC(Cc3ccc4ccccc4c3)C(=O)NCCCCC(NC(=O)NC(CCC(=O)O)C(=O)O)C(=O)O)CC1)c1c(C)cc(C)n1[B-]2(F)F` (stereo not drawn), the emission maximum was 504 nm (acetonitrile/water).
With `COc1ccc2cc(-c3ccc(-c4ccc(C)cn4)nc3)oc2c1` the emission maximum was 524 nm (aqueous HEPES buffer; pH 7.4, zinc(II) complex).
With `COc1cc(OC)cc(C2=C3C(C)=C(I)C(C)=[N+]3[B-](F)(F)n3c(/C=C/c4cccs4)c(I)c(C)c32)c1` the emission maximum was 610 nm (dichloromethane).
With `O=c1c(Br)c2oc3c(CN(Cc4ccccn4)Cc4cnccn4)c(O)ccc3nc-2c2ccccc12` the emission maximum was 628 nm (PIPES buffer; pH 7.0, Zn(II)-saturated).
